Measurements from different studies.
“And” joins repeats or separate records; there may be more than shown. Numbers after ± are the reported error.

SMILES	tested on	test	test system	setting	how to read	endpoint	value
Nc1nc(SCCN2CCCC2)nc2sc3c(c12)CCC(c1ccccc1)C3 (centres unmarked)			mouse liver microsomes	30 min		metabolized compound	38 ± 16%
CCCCCC(=O)NCC(=O)N[C@@H](CC(C)C)C(=O)N[C@@H](CC(C)C)C(=O)N[C@@H](CCCCN)C(=O)N[C@@H](CCCNC(=N)N)C(=O)N[C@H](C(=O)N[C@@H](CCCCN)C(=O)N[C@H](C(=O)N[C@@H](CC(C)C)C(=O)N[C@@H](CC(C)C)C(N)=O)[C@@H](C)O)[C@@H](C)CC	human erythrocytes			1 h, 37 °C, 10% haemolysis		minimum haemolytic concentration	> 256 µM
COc1cc(C(=O)NCCOCCOCCOCCNC(=O)c2ccc([18F])nc2)ccc1NC(=O)C1NC(CC(C)(C)C)C(C#N)(c2ccc(Cl)cc2F)C1c1cccc(Cl)c1F (centres unmarked)	HepG2 tumour model		host not given, blood	2 h, tumour-bearing		tracer uptake	0.83 %ID/g and < 1 %ID/g
CN[C@](C)(C[18F])C(=O)O	SK-OV-3 tumour model		host not given, bone	2 h, tumour-bearing		tracer uptake	2 %ID/g
CCC(=O)N(C)c1ccc(Cl)c(Cl)c1	Salmonella typhimurium	Ames test	TA98	0.50 mg/plate, with rat liver S9		revertants	25 ± 9.5 revertants/plate
CC[C@H](C)C(=O)N1CCC(NC(=O)Nc2ccc(OC(F)(F)F)c(F)c2)CC1			human, plasma	oral, 8 mg, single dose, fasted, healthy volunteers		AUC(0-inf)	3260 ng·h/mL
CCCCn1cc(C(=O)O)c(=O)c2cc(F)c3c(nnn3-c3ccccc3Cl)c21	MCF7	cell growth or viability, SRB				IC50	74.3 µM
COc1ccc(CNc2nc(N3CCC[C@H]3CO)ncc2C(=O)NN)cc1Cl	Salmonella typhimurium		TA100	125 µg/plate, 48 h		revertant count	143 ± 15
CCCC(=O)NCC(=O)N[C@@H](CC(C)C)C(=O)N[C@@H](CC(C)C)C(=O)N[C@@H](CCCCN)C(=O)N[C@@H](CCCNC(=N)N)C(=O)N[C@H](C(=O)N[C@@H](CCCCN)C(=O)N[C@H](C(=O)N[C@@H](CC(C)C)C(=O)N[C@@H](CC(C)C)C(=O)NCCCC[C@H](NC(=O)[C@H](CC(C)C)NC(=O)[C@H](CC(C)C)NC(=O)[C@@H](NC(=O)[C@H](CCCCN)NC(=O)[C@@H](NC(=O)[C@H](CCCNC(=N)N)NC(=O)[C@H](CCCCN)NC(=O)[C@H](CC(C)C)NC(=O)[C@H](CC(C)C)NC(=O)CNC(=O)CCC)[C@@H](C)CC)[C@@H](C)O)C(N)=O)[C@@H](C)O)[C@@H](C)CC	human erythrocytes			1 h, 37 °C, 10% haemolysis		minimum haemolytic concentration	27.6 µM
CN(C)CC1CCCCC1(O)c1cccc(O)c1 (centres unmarked)	Caco-2 TC7 monolayer			10 µM, 3 h, apical pH 6.8, basolateral pH 7.4		Papp A-to-B	6.5 ± 0.3 ×10⁻⁶ cm/s
C[C@@](O)(C(F)F)[C@H](NC(=O)c1ccc(C#CC#CC2CC2)cc1)C(=O)NO			CD-1 mouse	oral, 40 mg/kg, fasted		AUC(0-inf)	18200 ± 3700 ng·h/mL
CC[C@H](C)[C@H](N)C1=N[C@H](C(=O)N[C@@H](CC(C)C)C(=O)N[C@H](CCC(=O)O)C(=O)N[C@H](C(=O)N[C@H]2CCCCNC(=O)[C@H](CC(N)=O)NC(=O)[C@@H](CC(=O)O)NC(=O)[C@H](Cc3c[nH]cn3)NC(=O)[C@@H](Cc3ccccc3)NC(=O)[C@H](Cc3ccccc3)NC(=O)[C@@H](CCCN)NC2=O)[C@@H](C)CC)CS1	sheep red blood cells			128 µg/mL, 20 h, 37 °C	reference: Triton X-100 0.1%	hemolysis	0%
Cc1nc([C@H](NC(=O)c2ccc(-c3ccc(Cl)cc3)[nH]2)[C@@H]2CCCCN2)sc1CO	U87.CD4.CXCR4	cell growth or viability, XTT				CC50	~30 µM
CCCC(=O)NCC(=O)N[C@@H](CC(C)C)C(=O)N[C@@H](CC(C)C)C(=O)N[C@@H](CCCCN)C(=O)N[C@@H](CCCNC(=N)N)C(=O)N[C@H](C(=O)N[C@@H](CCCCN)C(=O)N[C@H](C(=O)N[C@@H](CC(C)C)C(=O)N[C@@H](CC(C)C)C(N)=O)[C@@H](C)O)[C@@H](C)CC	human erythrocytes			1 h, 37 °C, 10% haemolysis		minimum haemolytic concentration	> 256 µM
O=C(O)CCC(NP(=O)(O)OCCC[C@@H](NC(=O)CCC(NC(=O)CCCCCNC(=O)c1ccc([18F])cc1)C(=O)O)C(=O)O)C(=O)O (some centres unmarked)	CWR22Rv1 tumour model		host not given, heart	intravenous, 1 h, tumour-bearing		tracer uptake	0.34 %ID/g
O=C1CC(=O)N(c2ccccc2)c2cc(Cl)ccc2N1			C57BL/6 mice, whole blood	oral, 10 mg/kg		Cmax	6.6 µM
C[C@]12CC[C@H](OCC[18F])C[C@H]1CC[C@@H]1[C@@H]2CC[C@]2(C)[C@@H](c3ccc(=O)oc3)CC[C@]12O	SMMC-7721 tumour model		nude, tumour	intravenous, 7.4 MBq, 55 min, tumour-bearing		tracer uptake	4.7 %ID/g

Some of these lines once more:
SMILES	tested on	test	test system	setting	how to read	endpoint	value
Nc1nc(SCCN2CCCC2)nc2sc3c(c12)CCC(c1ccccc1)C3 (centres unmarked)			mouse liver microsomes	30 min		metabolized compound	38 ± 16%
CCCC(=O)NCC(=O)N[C@@H](CC(C)C)C(=O)N[C@@H](CC(C)C)C(=O)N[C@@H](CCCCN)C(=O)N[C@@H](CCCNC(=N)N)C(=O)N[C@H](C(=O)N[C@@H](CCCCN)C(=O)N[C@H](C(=O)N[C@@H](CC(C)C)C(=O)N[C@@H](CC(C)C)C(=O)NCCCC[C@H](NC(=O)[C@H](CC(C)C)NC(=O)[C@H](CC(C)C)NC(=O)[C@@H](NC(=O)[C@H](CCCCN)NC(=O)[C@@H](NC(=O)[C@H](CCCNC(=N)N)NC(=O)[C@H](CCCCN)NC(=O)[C@H](CC(C)C)NC(=O)[C@H](CC(C)C)NC(=O)CNC(=O)CCC)[C@@H](C)CC)[C@@H](C)O)C(N)=O)[C@@H](C)O)[C@@H](C)CC	human erythrocytes			1 h, 37 °C, 10% haemolysis		minimum haemolytic concentration	27.6 µM
